Measured values collected from several papers.
Numbered parts are unrelated; each lists some results of a single study.

Set 1
Target: Histone acetyltransferase KAT6A, both winged helices, GST fusion (KAT6A, Homo sapiens, UniProt Q92794, residues 1-181)
Technique: protein binding microarray
Molecule type: double-stranded DNA, one strand shown
Matrix: in vitro
Tested at: not given
Notes: 8-mer, flanks averaged, mean of 2 arrays, mostly near background
Relative to: not given
Direction: higher = stronger binding
Target sequence (chain): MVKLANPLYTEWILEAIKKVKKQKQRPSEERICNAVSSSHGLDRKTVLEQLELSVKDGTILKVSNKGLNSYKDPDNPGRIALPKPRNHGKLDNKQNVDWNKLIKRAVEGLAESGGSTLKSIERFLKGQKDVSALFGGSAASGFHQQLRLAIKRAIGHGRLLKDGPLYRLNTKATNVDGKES
Oligonucleotide	E-score
GTATCAGA	0.0239
GCCTAAGA	-0.0432
CCATATAA	-0.136
GATAACAC	0.00392
AAACGATA	-0.148
CGCTTCCC	0.283
GAGCATCC	-0.114
AGGGAGTG	-0.283
CCTAAGTA	-0.101
CAAAAGCG	0.255
AACGAGCT	-0.225
AGGTTAAA	-0.0258
CGTTGTCC	0.00103
AAATGTGT	-0.0768
GGAAACCC	0.0866
ATCGTCGA	-0.0741
TTCGAGAA	0.0526
CTGTGAAG	-0.174
ATTAGGGC	-0.213
CACCAACG	0.143
GTTGCAGA	-0.0759
GCCTTCTA	-0.101
CCACTGCC	-0.0771
CATAGGCC	0.00677
GCACCAAC	-0.00388

Set 2
Target: Interferon regulatory factor 7, full length, phosphomimetic (IRF7, Homo sapiens, UniProt Q92985, residues 1-503, S101K/S471D/S472D/S475D/S476D/S477D/S483D/S484D/S487D)
Sequence of UniProt Q92985 (whole entry, unmodified, looked up): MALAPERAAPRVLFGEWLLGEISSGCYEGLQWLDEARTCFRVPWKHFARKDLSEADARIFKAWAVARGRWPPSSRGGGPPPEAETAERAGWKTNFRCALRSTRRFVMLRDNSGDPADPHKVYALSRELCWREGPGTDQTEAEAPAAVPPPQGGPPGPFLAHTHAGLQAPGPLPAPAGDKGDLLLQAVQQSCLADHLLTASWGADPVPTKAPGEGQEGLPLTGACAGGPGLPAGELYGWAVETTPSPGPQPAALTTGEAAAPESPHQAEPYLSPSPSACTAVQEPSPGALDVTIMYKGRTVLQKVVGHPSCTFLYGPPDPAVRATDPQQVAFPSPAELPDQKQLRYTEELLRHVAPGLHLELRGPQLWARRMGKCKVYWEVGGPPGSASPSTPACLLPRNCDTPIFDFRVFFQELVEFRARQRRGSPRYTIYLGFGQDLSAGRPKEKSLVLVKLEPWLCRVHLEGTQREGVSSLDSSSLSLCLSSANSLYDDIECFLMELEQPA
Technique: protein-binding microarray
Molecule type: double-stranded DNA, one strand shown
Matrix: in vitro
Tested at: 250 nM
Notes: 60-bp whole probe
Added: salmon DNA 0.4 mg/ml
Relative to: random background probes
Direction: higher = stronger binding
Constant ends, left off below: GCCTAGCAC … GTCTTGATTCGCTTGACGCTGCTG
Oligonucleotide	log fluorescence [z-score]
TTAGGTTTCGACTTTGGGTTAGTGCTA	9.38
GACGGACTGATTATCCTGACGTGCTAG	-0.342
GACGATTTCGGGTCTGGAGACGTGCTA	0.443
TCAGTGTTCTTTTCTGTTACTGTGCTA	0.272
TCACCATTATATTTTAAACTGTGCTAG	0.298
TGAGGTTTCGGGTATCGGTTAGTGCTA	7.03
TTAGTACTGGGGACTGGATTAGTGCTA	-0.321
TTAGCACTGGGTCTCGGTTAGTGCTAG	0.476
TCAACTAGCGGGTCTTGCACTGTGCTA	-0.735
TTAGGTTTCTTTTATTCAAAGTGCTAG	3.2
TTAGATGTCAGACTGGATTAGTGCTAG	-0.264
TTCGGACTGCTTCTCCTTTAGTGCTAG	-0.189
TTAGGACTGGGTCTCGGATAGTGCTAG	0.341
TTAGAGTCCAGTTTCGATTAGTGCTAG	8.23
TTAGGACTGGACAGTGGGTTAGTGCTA	-0.664
GACGATACCAGTTTCGAGACGTGCTAG	4.35
TTATGACTGGGGTATCGGTTAGTGCTA	-0.0796

Set 3
Target: Ras GTPase-activating protein-binding protein 1, full length (G3BP1, Homo sapiens, UniProt Q13283)
Sequence of UniProt Q13283 (whole entry, looked up): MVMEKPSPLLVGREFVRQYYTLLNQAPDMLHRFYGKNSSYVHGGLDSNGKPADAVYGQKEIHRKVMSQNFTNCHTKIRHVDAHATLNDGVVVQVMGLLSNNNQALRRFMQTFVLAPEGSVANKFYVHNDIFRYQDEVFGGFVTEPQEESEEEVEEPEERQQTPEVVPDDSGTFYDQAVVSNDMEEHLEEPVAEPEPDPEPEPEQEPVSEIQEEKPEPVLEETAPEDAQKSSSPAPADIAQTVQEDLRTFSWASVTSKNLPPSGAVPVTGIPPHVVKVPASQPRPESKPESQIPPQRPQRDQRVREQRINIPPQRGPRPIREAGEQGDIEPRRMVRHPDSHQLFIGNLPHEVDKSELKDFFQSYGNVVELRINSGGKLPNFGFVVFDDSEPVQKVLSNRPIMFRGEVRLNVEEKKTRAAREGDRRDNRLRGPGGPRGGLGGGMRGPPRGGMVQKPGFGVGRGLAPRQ
Technique: RNA Bind-n-Seq
Molecule type: RNA
Matrix: in vitro
Tested at: 200 nM
Notes: whole 134-nt RNA, ends assumed
Added: 150 mM KCl
Relative to: input library
Direction: higher = stronger binding
Oligonucleotide	log2 enrichment
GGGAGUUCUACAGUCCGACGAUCCAAGUCCUGUGCUACACAUCGUAUGUACCGAAUCGGCCCGGCCCGGGGCCCGGGGAAAGUAUUAUGUUACGCCGUUCGGAUCUGCACUUCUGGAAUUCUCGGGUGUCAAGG	-0.53
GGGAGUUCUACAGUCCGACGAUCAAGUCCUGUGCUACACAUCGUAUGUACCGAAUCGGUUUUUUUGGAGGUUUUUUUGGAAAGUAUUAUGUUACGCCGUUCGGAUCUGCACUUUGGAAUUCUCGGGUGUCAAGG	-1.05
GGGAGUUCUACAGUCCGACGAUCGGAUCAAAGCAAGUUGGAGAAACAUCAGCACCUGGAGACACCUUAGAUGGCACACCUCGUACUCUCAAUACUGUCUUUGAUUUCCCACCAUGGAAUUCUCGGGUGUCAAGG	0.923
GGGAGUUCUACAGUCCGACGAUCUAACUUUAGAGGAGGUUCUGAUGGAUAUGGCAGUGGACGUGGAUUUGGGGAUGGCUAUAAUGGGUAUGGAGGAGGACCUGGAGGUGGCAAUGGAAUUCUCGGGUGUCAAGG	0.435
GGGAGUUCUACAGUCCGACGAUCCUCAAGUCCUGUGCUACACAUCGUAUGUACCGAAUCGGGGAAGGGGAAGGAAGGAAAGUAUUAUGUUACGCCGUUCGGAUCUGCACUUCCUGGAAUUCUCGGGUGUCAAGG	-0.2
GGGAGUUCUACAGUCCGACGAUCUAACUUUAGAGGAGGAUCUGAUGGAUAUGGCAGUGGACAUGGAUUUGGGGAUGGCUAUAAUGGGUAUGGAGGAGGACCUGGAGGUGGCAAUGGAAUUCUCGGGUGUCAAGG	0.259
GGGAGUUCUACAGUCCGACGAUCUCCUGUGCUACACAUCGUAUGUACCGAAUCGGAAAAAAAGGGAAAAAAAGGAAAAAAAGGAAAGUAUUAUGUUACGCCGUUCGGAUCUGCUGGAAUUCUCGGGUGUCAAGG	-0.436
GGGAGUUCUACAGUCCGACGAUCAGUCCUGUGCUACACAUCGUAUGUACCGAAUCGGGGUUUUUGGGGUUUGGGGAGGGGAAAGUAUUAUGUUACGCCGUUCGGAUCUGCACUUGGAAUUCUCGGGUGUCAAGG	0.654
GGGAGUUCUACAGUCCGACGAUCUGGCCCUGGUGGCAUGCGGGGAGGAAGAGGUGGCCUCAUGGAUCGUGGUGGUCCCAGUGGAAUGUUCAGAGGUGGCCGUGGUGGAGACAGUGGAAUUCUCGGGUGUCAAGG	0.147

Set 4
Target: Sal-like protein 4, full length isoform A (SALL4, Homo sapiens, UniProt Q9UJQ4, residues 1-1053)
Sequence of UniProt Q9UJQ4 (whole entry, looked up): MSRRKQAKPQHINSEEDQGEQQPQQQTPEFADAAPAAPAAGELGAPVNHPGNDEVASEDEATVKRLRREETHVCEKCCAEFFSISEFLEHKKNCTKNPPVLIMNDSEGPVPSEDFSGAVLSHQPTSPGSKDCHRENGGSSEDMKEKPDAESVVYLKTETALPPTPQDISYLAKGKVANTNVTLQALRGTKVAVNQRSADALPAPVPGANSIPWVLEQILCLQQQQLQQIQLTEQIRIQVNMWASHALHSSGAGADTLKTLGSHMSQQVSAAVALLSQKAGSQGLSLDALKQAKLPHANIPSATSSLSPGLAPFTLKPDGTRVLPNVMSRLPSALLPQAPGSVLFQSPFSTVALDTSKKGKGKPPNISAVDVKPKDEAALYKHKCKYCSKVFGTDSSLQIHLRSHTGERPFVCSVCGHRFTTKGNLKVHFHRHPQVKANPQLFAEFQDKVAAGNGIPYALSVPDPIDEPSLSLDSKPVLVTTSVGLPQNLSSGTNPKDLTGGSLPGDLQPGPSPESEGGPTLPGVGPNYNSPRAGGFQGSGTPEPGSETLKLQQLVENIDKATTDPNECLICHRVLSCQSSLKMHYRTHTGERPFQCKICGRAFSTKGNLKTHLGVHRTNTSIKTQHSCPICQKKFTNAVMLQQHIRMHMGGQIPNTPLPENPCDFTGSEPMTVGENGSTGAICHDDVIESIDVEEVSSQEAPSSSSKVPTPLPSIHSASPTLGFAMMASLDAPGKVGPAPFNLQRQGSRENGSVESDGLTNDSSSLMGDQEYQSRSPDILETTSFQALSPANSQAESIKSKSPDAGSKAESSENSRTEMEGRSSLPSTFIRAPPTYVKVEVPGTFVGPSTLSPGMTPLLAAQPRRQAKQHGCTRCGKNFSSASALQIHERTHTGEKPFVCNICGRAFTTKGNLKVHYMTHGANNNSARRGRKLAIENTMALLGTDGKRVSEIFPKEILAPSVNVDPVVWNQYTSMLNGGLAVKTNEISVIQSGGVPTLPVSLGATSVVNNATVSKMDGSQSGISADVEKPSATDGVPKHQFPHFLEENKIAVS
Technique: universal PBM
Molecule type: double-stranded DNA, one strand shown
Matrix: in vitro
Tested at: 600 nM
Notes: 8-mer, flanks averaged, mean of replicates
Direction: higher = stronger binding
Oligonucleotide	E-score
CACTCACA	-0.00284
CTGATCAC	-0.064
CACCTCGA	-0.0931
AGTATGAA	0.262
AACTTGCA	0.0354
ATTCCCCC	-0.129
CATACTAA	0.207
CAGTCATA	0.256
AAAATCTT	0.256
GTAAACGA	0.141
ACTTGATG	0.0866
CCAGGCTA	-0.275
ACGCGTGG	-0.211
ATTACGGA	0.0718
ATAGGCCG	-0.23
ATCACGTG	-0.0439
CCCGGTGA	-0.355

Excerpt of the above (set 2):
Oligonucleotide	log fluorescence [z-score]
TTAGAGTCCAGTTTCGATTAGTGCTAG	8.23
TTAGTACTGGGGACTGGATTAGTGCTA	-0.321
TTAGATGTCAGACTGGATTAGTGCTAG	-0.264
TCAACTAGCGGGTCTTGCACTGTGCTA	-0.735
TTAGGACTGGGTCTCGGATAGTGCTAG	0.341
TTAGGTTTCGACTTTGGGTTAGTGCTA	9.38
